Assay results gathered from unrelated publications.
Each numbered part is a random draw from the data of one study; scales do not carry over between parts.
Sequence of UniProt P08913 (whole entry, looked up): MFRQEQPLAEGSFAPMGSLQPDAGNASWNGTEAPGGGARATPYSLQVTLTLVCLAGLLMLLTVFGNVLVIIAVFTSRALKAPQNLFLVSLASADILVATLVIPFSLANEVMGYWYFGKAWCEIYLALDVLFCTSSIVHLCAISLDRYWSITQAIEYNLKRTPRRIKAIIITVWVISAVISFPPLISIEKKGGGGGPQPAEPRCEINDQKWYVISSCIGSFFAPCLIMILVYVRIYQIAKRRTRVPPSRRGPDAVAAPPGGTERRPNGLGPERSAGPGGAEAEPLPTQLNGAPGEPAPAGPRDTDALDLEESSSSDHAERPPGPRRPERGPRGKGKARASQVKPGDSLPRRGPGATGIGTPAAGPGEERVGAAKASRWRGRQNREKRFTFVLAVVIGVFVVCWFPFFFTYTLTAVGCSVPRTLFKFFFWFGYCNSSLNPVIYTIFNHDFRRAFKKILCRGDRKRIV

Series 1 — technique: protein-binding microarray; form: double-stranded DNA, one strand shown; sample: in vitro; tested at: 2200 nM top; notes: 60-bp whole probe; added: salmon DNA 0.4 mg/ml; relative to: random background probes; reading: higher = stronger binding; endpoint: fitted relative affinity; shared flanks, not repeated: GCCTAGCAC … GTCTTGATTCGCTTGACGCTGCTG
Target: Interferon regulatory factor 7, full length, phosphomimetic (IRF7, Homo sapiens, UniProt Q92985, residues 1-503, S471D/S472D/S475D/S476D/S477D/S483D/S484D/S487D)
Target sequence (chain): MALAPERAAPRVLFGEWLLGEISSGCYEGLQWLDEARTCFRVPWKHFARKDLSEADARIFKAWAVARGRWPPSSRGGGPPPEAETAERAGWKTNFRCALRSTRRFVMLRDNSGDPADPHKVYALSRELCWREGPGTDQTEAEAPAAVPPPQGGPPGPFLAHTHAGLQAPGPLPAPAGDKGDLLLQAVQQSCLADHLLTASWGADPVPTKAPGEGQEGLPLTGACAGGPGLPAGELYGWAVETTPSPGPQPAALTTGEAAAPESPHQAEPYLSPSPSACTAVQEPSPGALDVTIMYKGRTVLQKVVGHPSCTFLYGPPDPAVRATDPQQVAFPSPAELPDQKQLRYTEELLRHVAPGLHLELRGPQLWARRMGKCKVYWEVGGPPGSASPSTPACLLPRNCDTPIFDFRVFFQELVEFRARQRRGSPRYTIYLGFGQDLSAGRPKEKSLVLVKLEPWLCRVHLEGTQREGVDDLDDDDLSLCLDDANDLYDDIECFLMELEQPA
TTAGAACTGAGTTTCGATGAGTGCTAG: 0.681 z-score
TTAGATCTCAGTTTCGAGTAGTGCTAG: 3.7 z-score
TCAGCTCTCCGGGGTCTGACTGTGCTA: -0.206 z-score
TTAGGTCGCCTTCTCCTTTAGTGCTAG: 0.82 z-score
TTAGGTTTCGGGACTAGGTTAGTGCTA: 3.29 z-score
CACGTTGCTCAAGGGCTTGAGTGCTAG: 0.737 z-score
TTAGGACTGCTACGGCTTTAGTGCTAG: -0.374 z-score
TTAGATTTCGGGTTTCGATCAGTGCTA: 4.85 z-score

Series 2 — technique: RNA Bind-n-Seq; form: RNA; sample: in vitro; tested at: 200 nM; notes: whole 134-nt RNA, ends assumed; added: 150 mM LiCl; relative to: input library; reading: higher = stronger binding; endpoint: log2 enrichment; each molecule: 7-deaza-guanosine replaces G
Target: Ras GTPase-activating protein-binding protein 1, full length (G3BP1, Homo sapiens, UniProt Q13283)
Sequence of UniProt Q13283 (whole entry, looked up): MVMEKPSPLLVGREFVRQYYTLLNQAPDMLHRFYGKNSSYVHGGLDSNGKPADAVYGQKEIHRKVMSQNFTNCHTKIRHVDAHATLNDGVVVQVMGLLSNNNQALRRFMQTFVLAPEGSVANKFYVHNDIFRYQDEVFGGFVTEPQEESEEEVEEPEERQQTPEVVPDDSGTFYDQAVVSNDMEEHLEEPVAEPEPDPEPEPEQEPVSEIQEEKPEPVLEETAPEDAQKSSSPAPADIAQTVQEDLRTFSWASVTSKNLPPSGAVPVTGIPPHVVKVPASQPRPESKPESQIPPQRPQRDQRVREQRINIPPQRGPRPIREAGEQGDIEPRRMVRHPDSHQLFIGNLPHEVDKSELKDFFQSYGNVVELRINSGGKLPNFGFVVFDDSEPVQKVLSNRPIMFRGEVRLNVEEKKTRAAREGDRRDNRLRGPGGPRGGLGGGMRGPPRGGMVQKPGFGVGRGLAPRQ
Shared flanks, not repeated: GGGAGUUCUACAGUCCGACGAUC … UGGAAUUCUCGGGUGUCAAGG
GCAGGAAGUAAAAACAAAUGGAAAUGCUUCGGAUAGUGGCAGGGGUAAAGGUUGCUAAGGAAAGGGUGGGAUGGGAGUGGGUAAAGAGUU: 0.629
ACCAUGCAGGUGGGCAUCUUUGGGAAGUGGGGCAAGGGGCGGAUAGGGAGGGGGGUAACACUUUGGGAACAGGUGGUCCCAGGUCGUUUC: 0.287
CACAGACAACACGCACCCACACAGACACAGAGGGAAGGGGUUGGGAUGGGGACAGGGUGCACAGCAGGGCGGGGUAGCACCCCAGCCCCU: 1.47
CAAGUCCUGUGCUACACAUCGUAUGUACCGAAUCGGCCCGGCCCGGGGCCCGGGGAAAGUAUUAUGUUACGCCGUUCGGAUCUGCACUUC: -0.831
CAAGUCCUGUGCUACACAUCGUAUGUACCGAAUCGGGAGGGUUUUUUUGGGAGGGAAAGUAUUAUGUUACGCCGUUCGGAUCUGCACUUC: 0.647
AGUCCUGUGCUACACAUCGUAUGUACCGAAUCGGGUUUGGGUUUUUGGGAAAAAGGGAAAGUAUUAUGUUACGCCGUUCGGAUCUGCACU: -0.548
UCCUGUGCUACACAUCGUAUGUACCGAAUCGGGUUUGGGAAAAAAAGGGAAAAAAAGGGAAAGUAUUAUGUUACGCCGUUCGGAUCUGCA: 0.243
UCCUGUGCUACACAUCGUAUGUACCGAAUCGGGGUUUUUUUGGGGAAAGGGGAAAGGGGAAAGUAUUAUGUUACGCCGUUCGGAUCUGCA: 0.431

Series 3 — technique: RNA Bind-n-Seq; form: RNA; sample: in vitro; tested at: 365 nM; relative to: no-protein control; reading: higher = stronger binding; endpoint: RBNS enrichment (R)
Target: RNA binding protein fox-1 homolog 2, RRM domain, GST-SBP tag (RBFOX2, Homo sapiens, UniProt O43251-10, residues 100-194)
Notes: natural RNA segment, single round, ends assumed
Shared flanks, not repeated: GGGAGUUCUACAGUCCGACGAUC … UGGAAUUCUCGGGUGCCAA
Residues (chain): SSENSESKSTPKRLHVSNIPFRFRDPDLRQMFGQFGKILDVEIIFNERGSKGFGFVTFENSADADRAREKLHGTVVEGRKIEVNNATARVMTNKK
CCUCAGGGUAUCAAAGGAGCCCUUUGCUGUGAACCUGGCUAGGAAUGCAAGAUGACUCAGAGUAUAGGUCAGGGUCAGCACUGGAUAAGGUCAUGAGGGCAGUCUCCCAG: 1.59
UCCAGAUGCCUGAGCCCCUUCACUCCGACAGCACCAGCGCCUAAUGCAGCCUUUUCAUUCUUGCCAUUAGGAAAUCUGUGGACUUCUAGCCUGUGUUUUAAACCAGCCAU: 0.312
UUUAAUAUAGAAAAUAAUUAUGGAGUUAGGAAUCUCAUGGCUACAUUUACAUUUUUAGGUUAUUACAGAAAAUUCUCUUAAUUUAUUAUAGUCAAGUGUAUUAUGUAAUC: 0.614
UUAAAGCUACAUCAUGCUGUAGUGUUGGCAUUUUUAGUUAAUAGGGCAUUGUCUUCCUUGUAUAUGUUUGUCAUAUUUCAUUUCACCAAAUAAACACAUACUCAUUGUGA: 0.914
GCCCAUUGCAGCACUGUGCUGGCCAGACUUCAGCUGCCUUGGGAACUGAAGCCCUGCCACUGUUGCUAGUCAGGGGCUUGGUUCUCCCACUUACACUGUUGACAUCUAUU: 1.11
GGAUUAAGCCUUGAGCUUGGCUGGUGCCCAUUGGACCUGGGACCAGGUGUUACCCAGAGAGGUGCCUCUGCUGUGCUUCCUGCCUCCAUCACUUUCCUAGGGCCUCCGUG: 0.28
UAACCUUGGCCUACUCUAUUCUUUCCCCCCAUGAACUUAUCAAAGGGAGAACUGGUUGUGUAUUUAAGAGAAAUGAGAGUGCAUUGCAAAGUAGUUUCCCAAGGCAUUUC: 0.429
CCCACCCCACGACCUUGGCCCGAGCCCCUCCGUGAGGAACACAAUCUCAAUCGUUGCUGAAUCCUUUCAUAUCCUAAUAGGAAUUAACCUCCAAAUAAAACAUGACUGGU: 0.285

Mixed results
COc1cc(-c2cn(C3CCc4ccccc4N(CC(F)(F)F)C3=O)nn2)ccc1-n1ccc(C)n1 (stereo not shown)  inhibition (Alpha-2A adrenergic receptor (ADRA2A, Homo sapiens, UniProt P08913); binding, radioligand binding; 10 µM): 22.2%
